Measured values of several laboratories.
Lines come from different studies, so protocols differ. Several values in a cell are separate wells, animals, samples, runs or records. ± gives the spread as reported. In brackets after ≈: the same amount, converted by molar mass.

| Compound | assay | system | setting | scale | endpoint | value |
| --- | --- | --- | --- | --- | --- | --- |
| CN1CCC[C@H](CN2c3ccccc3Sc3ccccc32)C1.Cl | – | fasted female ICR mouse, brain | oral, 16 mg/kg | – | Tmax | 1 h |
| CCc1cc(C(=O)NC)c2nccc(N3CCc4c(cc(Cn5ccnc5)cc4-c4cn(C)nc4C(F)(F)F)C3=O)c2c1 | – | Sprague Dawley rat | oral, 100 mg/kg once daily, day 4, 7-day toxicology study | – | body weight | 243 ± 5.6 g |
| Cc1ccc(Sc2ccccc2N2CCNCC2)c(C)c1 | item: Headache | healthy adult women | oral, 5 mg daily, 12 days | – | participants with TEAE | 0% |
| CNCc1ccc(-c2[nH]c3cc(F)cc4c3c2CCNC4=O)cc1 | – | patients | oral, 600 mg twice daily, grade 2 | – | abdominal pain incidence | 0% |
| CCn1cc(C(=O)N2CCOCC2)c(=O)c2cc(NC3Cc4ccccc4C3)cnc21 | – | human, fasted, plasma | oral, 1200 mg single dose, tablet, arithmetic mean | – | AUC(0-last) | 36800 ng·h/mL |
| CCCCOC(=O)N1CCN(C(=O)[C@H](CP(=O)(O)O)NC(=O)c2cc(N3CC[C@H](OC)C3)nc(-c3ccccc3)n2)CC1 | item: haematocrit | human, blood | 8 mg, 24 h post-dose | – | change from baseline | -0.001 ± 0.028 L/L |
| CCCCC/C=C\C/C=C\CCCCCCCC(=O)O.Cc1cc(/C=C/C#N)cc(C)c1Nc1ccnc(Nc2ccc(C#N)cc2)n1 | – | Capryol 90 | – | – | kinetic solubility | ~50 mg/mL |
| O=C(Nc1nc2cccc(-c3ccc(CN4CCS(=O)(=O)CC4)cc3)n2n1)C1CC1 | item: vomiting | rheumatoid arthritis patients | oral, 75 mg once daily, 4 weeks, any relatedness | – | treatment-emergent adverse events | 0% |
| COc1ncc(-c2nc3c(n2C(C)C)[C@H](c2ccc(Cl)cc2)N(c2cc(Cl)cn(C)c2=O)C3=O)c(OC)n1 | LC-MS/MS, noncompartmental | human, plasma | oral, 150 mg, C1D1, high-dose, geometric mean | – | Cmax | 1440 ng/mL |
| COC[C@@H](c1ccc(C(F)(F)F)cc1)N1CCN(C2(C)CCN(C(=O)c3c(C)ncnc3C)CC2)C[C@@H]1C | – | human | population PK model, added: ritonavir | – | intercompartmental clearance | 29.5 L/h |
| C[C@@H]1COCCN1c1cc(C2([S@](C)(=N)=O)CC2)nc(-c2cc[nH]c3nccc2-3)n1 | – | Japanese advanced solid tumour patients | oral, 160 mg twice daily, any grade | – | Fatigue incidence | 0% |
| CNC(=O)c1ccc(-c2cnc3ncc(Cc4ccc5ncccc5c4)n3n2)cc1F | item: Cough | cancer patients | oral, dose not given, dose escalation, grade 3-4 | – | patients with adverse event | 0% |
| CC(C)c1nc(N(C)S(C)(=O)=O)nc(-c2ccc(F)cc2)c1/C=C/[C@@H](O)C[C@@H](O)CC(=O)O | – | human | oral, 10 mg, compound alone | – | participants with TRAE headache | 0% |
| CN(CCCN1CCN(C(=O)CN2CCN(CC(=O)[O-])CCN(CC(=O)[O-])CCN(CC(=O)[O-])CC2)CC1)c1ccc2nccc(C(=O)NCC(=O)N3CC(F)(F)C[C@H]3C#N)c2c1.[68Ga+3] | – | mice, HT-1080.hFAP and HT-1080 wild-type xenografts, muscle | iv, 500 pmol, 4 h post injection | – | uptake | 0.1 ± 0.1 %IA/g |
| c1csc(CNc2cc[nH]n2)c1 | DNA damage, alkaline comet | Hsd:ICR(CD-1) mice, female, liver | oral gavage, 1000 mg/kg/day, 3 days | – | tail DNA (mean) | 2.4% |
| Cl.[2H]C([2H])([2H])CC(=O)c1cnc(NC(=O)C2CC2)cc1Nc1cccc(-c2ncn(C([2H])([2H])[2H])n2)c1OC | geometric mean | human | oral, 17.5 mg single dose, fasted, liquid | – | AUC(0-inf) | 1920 ng·h/mL |
| CCC(=O)O[C@]1(C(=O)SCF)[C@H](C)C[C@H]2[C@@H]3C[C@H](F)C4=CC(=O)C=C[C@]4(C)[C@@]3(F)[C@@H](O)C[C@@]21C | three-compartment model | rat, plasma | intravenous, 90 nmol/kg | – | rapid distribution clearance | 96.7 ± 26.7 mL/min/kg |
| CCCOc1ccc([C@H]2CNC(=O)N2c2ccc3[nH]cnc3c2)cc1 | – | human, urine | oral, dose not given, 24 h | reference: dose | unchanged drug in urine | ~5% |
| C=CCN1CC(=O)N2[C@@H](Cc3ccc(O)cc3F)C(=O)N(Cc3cccc(N4CC(N5CCN(CC)CC5)C4)n3)C[C@@H]2N1C(=O)NCc1ccccc1 | – | advanced solid tumour patients | oral, 10 mg twice daily, grade ≥3, dose-escalation | – | treatment-related nausea | 0% |
| COc1cc2nccc(Oc3ccc(NC(=O)c4cc5c(n(-c6ccccc6)c4=O)CCCC5=O)nc3)c2cc1OC | – | relapsed or refractory AML | oral, 6 mg once daily | – | grade ≥3 Hypophosphatemia patients | 33.3% |
| COc1ccc([C@@H](O)c2cc(-c3ncnc4cc(N5CCOCC5)ccc34)c(F)cc2Cl)nn1 | – | locally advanced rectal cancer patients | 50 mg, added: capecitabine and radiotherapy | – | fatigue TEAE incidence | 100% |
| Cc1cc(C)c(CNC(=O)c2cc(Cl)c3c(c2C)O[C@@](C)([C@H]2CC[C@H](N(C)C)CC2)O3)c(=O)[nH]1 | item: Fatigue | human patients | oral, 200 mg once daily, 1 day onset day 14 | – | patients with TEAE | 8.3% |

| Compound | assay | system | setting | scale | endpoint | value |
| --- | --- | --- | --- | --- | --- | --- |
| O=C1CCc2ccc(OCCCCN3CCN(c4cccc(Cl)c4Cl)CC3)cc2N1 | item: Rigidity | patients, CYP2D6 normal metabolizers | dose not given, long-acting oral or depot | – | adverse event incidence | 3.6% |
| Cc1ccc([C@@H]2O[C@H](CO)[C@@H](O)[C@H](O)[C@H]2O)cc1Cc1ccc(-c2ccc(F)cc2)s1 | – | Japanese type 2 diabetes patients | 400 mg, day 16, 24 h urine collection | reference: baseline | urinary sodium excretion change | 24.8 mEq |
| N#Cc1ccc2c(c1)[C@H]1CCCN(C(=O)c3ccc4[nH]cnc4c3)[C@H]1C2 | – | human females | 240 mg, day 15 | – | SHBG level | 42 nmol/L |
| COc1cc([C@H]2Oc3ccc([C@H]4Oc5cc(O)cc(O)c5C(=O)[C@@H]4O)cc3O[C@@H]2CO)ccc1O | – | FVB wild-type mice, plasma | oral gavage, 500 mg/kg silymarin, geometric mean | – | AUC(0-4h) | 0.16 µM·h |
| C1=C/COCc2cc(ccc2OCCN2CCCC2)Nc2nccc(n2)-c2cccc(c2)COC/1 | – | rat plasma | 1200 ng/mL, three freeze-thaw cycles | reference: nominal concentration | stability relative error | 5.42% |
| O=C(N[C@H](Cc1c[nH]c2ccccc12)C(=O)Nc1ccncc1)c1ccc(-c2ccc(F)c(Cl)c2)cc1F | – | Swiss Webster mouse, female, lung | oral, 50 mg/kg, 8 h, 20% Kolliphor vehicle | – | concentration | 40.9 µM |
| CCCCOc1ccc([C@H]2CC[C@H](CCC)CC2)c(F)c1F | – | rat, placenta | 1000 ng/mL in perfusate, middle dose, mixture of 21 LCMs | – | median placental accumulation | 10.6 ng/g |
| CCCOc1ccc(NC(=O)CN2CCN(C)CC2)cc1-c1nc(CC)c(CC)c(=O)[nH]1 | – | healthy Chinese men | 10 mg, supine or semi-supine, added: alcohol 0.5 g/kg | – | AUEC(0-4 h) systolic BP | -12.6 ± 23.2 h·mmHg |
| C=CC(=O)Nc1cc(Nc2nccc(-c3cn(C)c4ccccc34)n2)c(OC)cc1N(C)CCN(C)C | storage stability | human dried blood spots | 24 h, -80 °C, high QC level | – | recovery | 105% |
| CC1(CNC(=O)c2ccc(C#CC#Cc3ccccc3)cc2)NC(=O)NC1=O (stereo not shown) | – | aqueous buffer | pH 7.4 | – | thermodynamic solubility | < 7.14 µM |
| Cn1cc(Nc2nccc(-c3ccc4c(c3)CN(C3COC3)CC[C@H]4NC(=O)c3cn(C(C)(C)C)nn3)n2)cn1 | – | human, whole blood | 50 mg twice daily, day 7 | reference: pre-dose baseline | CD4+ T cell count change | 12.9% |
| COc1c(O)cc(C(=O)O)cc1O | – | broiler chickens, serum | oral, in feed, 2000 mg/kg feed, corn diet, no tannins | – | AUC | 0.47 ± 0.15 µM·h |
| CCc1c(-c2ccccc2)c(-c2ccccc2)nn1-c1ccccc1-c1cccc(OCC(=O)O)c1 | – | Sprague-Dawley rat, heart homogenate | oral, 10 mg/kg, 1 h | – | concentration | 446 ng/mL and 535 ng/mL |
| Cc1nc2cccc(OCC(C)(C)C(=O)NC(C)C)c2c(N)c1C(=O)O | – | Swiss albino CD-1 mouse | oral, 500 mg/kg, 36 h | – | mean body weight change | 2.7 ± 0.5 g |
| COC(=O)c1ccc2c(c1)NC(=O)/C2=C(\Nc1ccc(N(C)C(=O)CN2CCN(C)CC2)cc1)c1ccccc1 | – | healthy volunteers, plasma | oral, 150 mg single dose, alone | – | AUCinf | 186 ng·h/mL |
| CCO[C@H]1CCN(Cc2c(OC)cc(C)c3[nH]ccc23)[C@H](c2ccc(C(=O)O)cc2)C1 | – | human moderate hepatic impairment, plasma | oral, 200 mg single dose, mean | – | unbound AUClast | 5980 ng·h/mL |
| CCCc1ccc(-c2ccc(-c3cc(F)c(F)c(F)c3)c(F)c2)cc1 | – | rat, placenta | 5000 ng/mL in perfusate, high dose, mixture of 21 LCMs | – | median placental accumulation | 195 ng/g |
| c1ccc(-c2nc(NCCn3cnc4ccccc43)c3ccccc3n2)nc1 | – | Japanese Pharmacopoeia disintegration test solution 2 | pH 6.8 | – | kinetic solubility | 0.089 mg/mL (≈ 243 µM) |
| CC(C(=O)NCC(=O)NCC(CNC(=O)CNC(=O)C(C)N1CCN(CC(=O)[O-])CCN(CC(=O)[O-])CCN(CC(=O)[O-])CC1)(CNC(=O)CNC(=O)C(C)N1CCN(CC(=O)[O-])CCN(CC(=O)[O-])CCN(CC(=O)[O-])CC1)CNC(=O)CNC(=O)C(C)N1CCN(CC(=O)[O-])CCN(CC(=O)[O-])CCN(CC(=O)[O-])CC1)N1CCN(CC(=O)[O-])CCN(CC(=O)[O-])CCN(CC(=O)[O-])CC1.[Gd+3].[Gd+3].[Gd+3].[Gd+3] (stereo not shown) | – | cynomolgus monkey, kidney cortex | dose not given, day 5 | – | lanthanide concentration | 41 ± 32 nmol/g |
| COc1cc(C(=O)NC2CCN(C)CC2)c(F)cc1Nc1ncc(C(F)(F)F)c(Oc2cccc3c2C(=O)N(C)C3)n1 | – | human patients, plasma | oral, 25 mg once daily repeated, geometric mean | – | dose-normalised Cmax at steady state | 16.2 nmol/L per mg |
| Cc1cc([C@H]2C[C@H]3[C@@H](CF)SC(N)=N[C@@]3(c3ccc(F)cc3F)CO2)on1 | – | male 129/SVE wild-type mouse, brain | subcutaneous, 30 mg/kg, 9 h | – | brain concentration | 0.014 µM |

Excerpt of the above:
| Compound | assay | system | setting | scale | endpoint | value |
| --- | --- | --- | --- | --- | --- | --- |
| COC(=O)c1ccc2c(c1)NC(=O)/C2=C(\Nc1ccc(N(C)C(=O)CN2CCN(C)CC2)cc1)c1ccccc1 | – | healthy volunteers, plasma | oral, 150 mg single dose, alone | – | AUCinf | 186 ng·h/mL |
| CC1(CNC(=O)c2ccc(C#CC#Cc3ccccc3)cc2)NC(=O)NC1=O (stereo not shown) | – | aqueous buffer | pH 7.4 | – | thermodynamic solubility | < 7.14 µM |
| CN(CCCN1CCN(C(=O)CN2CCN(CC(=O)[O-])CCN(CC(=O)[O-])CCN(CC(=O)[O-])CC2)CC1)c1ccc2nccc(C(=O)NCC(=O)N3CC(F)(F)C[C@H]3C#N)c2c1.[68Ga+3] | – | mice, HT-1080.hFAP and HT-1080 wild-type xenografts, muscle | iv, 500 pmol, 4 h post injection | – | uptake | 0.1 ± 0.1 %IA/g |
| COc1ncc(-c2nc3c(n2C(C)C)[C@H](c2ccc(Cl)cc2)N(c2cc(Cl)cn(C)c2=O)C3=O)c(OC)n1 | LC-MS/MS, noncompartmental | human, plasma | oral, 150 mg, C1D1, high-dose, geometric mean | – | Cmax | 1440 ng/mL |
| CC(C(=O)NCC(=O)NCC(CNC(=O)CNC(=O)C(C)N1CCN(CC(=O)[O-])CCN(CC(=O)[O-])CCN(CC(=O)[O-])CC1)(CNC(=O)CNC(=O)C(C)N1CCN(CC(=O)[O-])CCN(CC(=O)[O-])CCN(CC(=O)[O-])CC1)CNC(=O)CNC(=O)C(C)N1CCN(CC(=O)[O-])CCN(CC(=O)[O-])CCN(CC(=O)[O-])CC1)N1CCN(CC(=O)[O-])CCN(CC(=O)[O-])CCN(CC(=O)[O-])CC1.[Gd+3].[Gd+3].[Gd+3].[Gd+3] (stereo not shown) | – | cynomolgus monkey, kidney cortex | dose not given, day 5 | – | lanthanide concentration | 41 ± 32 nmol/g |
